Published values of several laboratories.
Parts stem from different laboratories: compare values within a part only. “And” joins repeats or separate records; there may be more than shown.

Sample 1 — effect on: thermal unfolding; technique: differential scanning fluorimetry; concentration: 5.5 µM; reading: higher = more unfolded; endpoint: SYPRO Orange fluorescence
Compound: C[C@@H]1CN(c2ccc(-c3cc(C(=O)NCCOCCOCCOCCOCCNC(=O)/C=C/c4[nH]cc(C(=O)N[C@@H](CC(N)=O)c5ccc(F)c(Cl)c5)c4-c4ccc(Cl)cc4F)ccc3F)cc2NC(=O)c2c[nH]c(=O)cc2C(F)(F)F)C[C@H](C)N1C
WDR5: WD repeat-containing protein 5 (WDR5, Homo sapiens, UniProt P61964)
DCAF1: DDB1- and CUL4-associated factor 1 (DCAF1, Homo sapiens, UniProt Q9Y4B6)
Sequence of UniProt Q9Y4B6 (whole entry, looked up): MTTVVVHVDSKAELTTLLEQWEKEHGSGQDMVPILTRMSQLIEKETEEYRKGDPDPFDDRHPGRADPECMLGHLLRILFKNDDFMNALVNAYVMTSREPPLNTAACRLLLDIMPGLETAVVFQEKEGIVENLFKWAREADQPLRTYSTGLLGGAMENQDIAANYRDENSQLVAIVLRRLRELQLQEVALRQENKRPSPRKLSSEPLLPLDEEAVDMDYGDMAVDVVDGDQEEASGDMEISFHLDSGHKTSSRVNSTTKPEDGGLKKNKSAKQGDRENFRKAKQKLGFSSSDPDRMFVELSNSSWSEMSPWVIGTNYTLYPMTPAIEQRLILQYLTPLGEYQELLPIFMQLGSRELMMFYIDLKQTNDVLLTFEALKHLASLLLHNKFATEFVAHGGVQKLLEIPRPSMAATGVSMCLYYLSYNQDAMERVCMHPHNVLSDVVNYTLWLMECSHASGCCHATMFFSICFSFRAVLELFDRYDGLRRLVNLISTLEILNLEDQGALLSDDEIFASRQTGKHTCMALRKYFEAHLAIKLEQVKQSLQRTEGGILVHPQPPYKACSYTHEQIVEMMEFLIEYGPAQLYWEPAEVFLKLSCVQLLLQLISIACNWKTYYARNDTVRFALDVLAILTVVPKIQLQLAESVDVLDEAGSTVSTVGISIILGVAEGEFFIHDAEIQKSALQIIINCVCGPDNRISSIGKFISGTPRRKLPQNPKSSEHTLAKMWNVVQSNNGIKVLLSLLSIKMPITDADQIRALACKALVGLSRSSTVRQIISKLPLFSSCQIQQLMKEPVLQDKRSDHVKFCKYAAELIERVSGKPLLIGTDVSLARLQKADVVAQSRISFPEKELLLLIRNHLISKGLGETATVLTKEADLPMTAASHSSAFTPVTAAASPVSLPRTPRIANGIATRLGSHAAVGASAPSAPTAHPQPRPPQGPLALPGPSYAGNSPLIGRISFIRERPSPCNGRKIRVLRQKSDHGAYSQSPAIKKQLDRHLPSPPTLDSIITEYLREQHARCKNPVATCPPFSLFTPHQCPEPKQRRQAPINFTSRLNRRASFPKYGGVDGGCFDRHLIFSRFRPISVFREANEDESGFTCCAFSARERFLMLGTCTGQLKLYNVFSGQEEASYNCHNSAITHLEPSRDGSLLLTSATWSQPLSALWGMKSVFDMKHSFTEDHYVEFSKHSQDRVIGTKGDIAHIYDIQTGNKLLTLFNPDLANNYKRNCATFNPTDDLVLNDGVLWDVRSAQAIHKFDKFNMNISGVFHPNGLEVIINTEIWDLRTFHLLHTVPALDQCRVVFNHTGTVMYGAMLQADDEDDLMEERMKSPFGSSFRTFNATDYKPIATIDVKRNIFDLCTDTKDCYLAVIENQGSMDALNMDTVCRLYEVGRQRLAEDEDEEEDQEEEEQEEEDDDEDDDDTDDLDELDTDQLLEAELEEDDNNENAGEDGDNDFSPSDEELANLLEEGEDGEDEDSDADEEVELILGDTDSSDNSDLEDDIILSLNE
WDR5; 40 °C: 13800 a.u.
WDR5; 66.81 °C: 14000 a.u.
WDR5; 45.6 °C: 15400 a.u.
WDR5; 48.6 °C: 16000 a.u.
DCAF1; 77.21 °C: 47800 a.u.
DCAF1; 92.61 °C: 32100 a.u.
WDR5; 50.2 °C: 16500 a.u.

Sample 2 — cell line: L444P/L444P Gaucher fibroblasts; technique: 4-MUG hydrolysis in lysate; concentration: 10 µM; time: 72 h; reference: vehicle; endpoint: enzyme activity
CCN(CC)c1nc(NCCN2CCOCC2)nc(Nc2ccc(I)cc2)n1: 70%
Ic1ccc(Nc2nc(NCCN3CCOCC3)nc(N3CCCCC3)n2)cc1: 91%
Ic1ccc(Nc2nc(NCCc3c[nH]c4ccccc34)nc(NCCN3CCOCC3)n2)cc1: 99%
CCOc1ccc2nc(Sc3nc(N4CCOCC4)nc(N4CCOCC4)n3)sc2c1: 111%
Ic1ccc(Nc2nc(NCCCN3CCOCC3)nc(N3CCOCC3)n2)cc1: 131%
Ic1ccc(Nc2nc(NCCN3CCOCC3)nc(N3CCCC3)n2)cc1: 96%
COc1ccc(Nc2nc(NCCN3CCOCC3)nc(N3CCOCC3)n2)cc1: 107%
Ic1ccc(Nc2nc(NCCN3CCOCC3)nc(NC3CCCCC3)n2)cc1: 93%
CCOc1ccc2nc(Sc3nc(Nc4ccc(I)cc4)nc(N4CCOCC4)n3)sc2c1: 203% and 255% and 264% and 217% and 165% and 262% and 278%

Sample 3 — endpoint: inhibition
Structure (SMILES): O=C(O)C1(O)Oc2cc(F)ccc2N(Cc2ccccc2)C1=O (centres unmarked)
Arabidopsis thaliana; root length; Col-0, seedlings; 50 µg/mL; reference: water control: 99.2%
Arabidopsis thaliana; hypocotyl length; Col-0, seedlings; 100 µg/mL: 99.6%
Arabidopsis thaliana; root length; Col-0, seedlings; 50 µg/mL: 99.2%
Arabidopsis thaliana; hypocotyl length; Col-0; 25.0 µg/mL, 7 days, seed germination, dark: 59.4%
Arabidopsis thaliana; hypocotyl length; Col-0, seedlings; 12.5 µg/mL: 45.1%
Avena fatua; fresh weight; 150 g ai/ha, pre-emergence treatment: 100%

Other studies, line by line
Cc1nc(C)c(C=[N+]([O-])C(C)(C)C)nc1C  apoptotic cells (rat cerebellar granule neurons; TUNEL; 300 µM, 2 h pretreatment, added: MPP+ 150 µM for 24 h): 31.3%

Repeated from above (sample 3):
Arabidopsis thaliana; root length; Col-0, seedlings; 50 µg/mL: 99.2%
Arabidopsis thaliana; hypocotyl length; Col-0; 25.0 µg/mL, 7 days, seed germination, dark: 59.4%
Arabidopsis thaliana; hypocotyl length; Col-0, seedlings; 12.5 µg/mL: 45.1%
